Measured values pooled from the literature.
A part holds a random share of what one study measured. Substitutions count along the parent as printed.
UniProt Q9XFM0, sequence (whole entry, looked up): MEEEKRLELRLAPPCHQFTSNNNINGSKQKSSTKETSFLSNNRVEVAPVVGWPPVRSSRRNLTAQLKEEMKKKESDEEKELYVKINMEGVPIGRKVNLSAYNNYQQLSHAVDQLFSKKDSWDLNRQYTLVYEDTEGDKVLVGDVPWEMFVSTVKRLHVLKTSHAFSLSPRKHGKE
UniProt Q9XED8, sequence (whole entry, looked up): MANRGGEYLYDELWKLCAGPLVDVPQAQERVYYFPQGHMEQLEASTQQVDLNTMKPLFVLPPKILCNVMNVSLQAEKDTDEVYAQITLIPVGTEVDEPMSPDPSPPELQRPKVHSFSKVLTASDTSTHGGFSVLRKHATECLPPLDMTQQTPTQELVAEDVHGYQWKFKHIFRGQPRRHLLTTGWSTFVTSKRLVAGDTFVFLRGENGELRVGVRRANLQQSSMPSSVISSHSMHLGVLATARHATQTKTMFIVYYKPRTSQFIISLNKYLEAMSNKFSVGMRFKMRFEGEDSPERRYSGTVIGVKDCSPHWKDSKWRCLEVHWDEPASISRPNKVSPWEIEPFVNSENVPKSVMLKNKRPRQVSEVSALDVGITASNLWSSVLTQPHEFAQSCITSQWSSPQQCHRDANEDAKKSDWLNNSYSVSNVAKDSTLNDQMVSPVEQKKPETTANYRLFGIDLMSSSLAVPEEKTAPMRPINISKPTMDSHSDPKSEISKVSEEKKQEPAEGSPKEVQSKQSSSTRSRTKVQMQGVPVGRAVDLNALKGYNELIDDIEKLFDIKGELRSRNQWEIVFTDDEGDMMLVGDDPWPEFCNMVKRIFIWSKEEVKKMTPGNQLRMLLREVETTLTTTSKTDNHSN

Sample 1
Target: Sal-like protein 4, full length isoform B (SALL4, Homo sapiens, UniProt Q9UJQ4-2, residues 1-616)
Method: universal PBM
Molecule type: double-stranded DNA, one strand shown
Matrix: in vitro
Concentration: not given
Setting: 8-mer, flanks averaged, mean of replicates
Reading: higher = stronger binding
Residues (chain): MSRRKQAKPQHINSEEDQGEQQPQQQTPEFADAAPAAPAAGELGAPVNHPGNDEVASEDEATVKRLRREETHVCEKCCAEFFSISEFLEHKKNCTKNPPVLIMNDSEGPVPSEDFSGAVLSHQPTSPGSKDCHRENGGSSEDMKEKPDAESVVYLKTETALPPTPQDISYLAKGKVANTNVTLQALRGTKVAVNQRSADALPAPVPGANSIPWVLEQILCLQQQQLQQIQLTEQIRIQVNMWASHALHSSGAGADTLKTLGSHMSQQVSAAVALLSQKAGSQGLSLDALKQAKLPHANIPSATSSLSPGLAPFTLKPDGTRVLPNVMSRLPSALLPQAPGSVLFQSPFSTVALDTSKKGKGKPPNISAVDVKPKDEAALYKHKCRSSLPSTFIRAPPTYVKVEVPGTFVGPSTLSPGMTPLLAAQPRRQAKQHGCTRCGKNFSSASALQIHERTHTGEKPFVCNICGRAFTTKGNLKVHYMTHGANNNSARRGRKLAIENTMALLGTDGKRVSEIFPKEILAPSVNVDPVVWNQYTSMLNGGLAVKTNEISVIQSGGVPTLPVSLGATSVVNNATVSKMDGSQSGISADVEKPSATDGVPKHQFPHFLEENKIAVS
Strand | E-score
CTGGCCCA | -0.257
AGCTTTCA | -0.0873
GCAAAGAC | 0.0464
AGGGTACT | -0.112
CACTGGCA | -0.112
AAACTTAA | 0.258
CCCCACCA | -0.224
AGATAGAA | 0.108
ACGGGGAC | -0.223
AACCCACT | -0.104
CCAGCCCC | -0.133
CTGCGGAC | -0.287
GTGGAAGA | 0.0684
ATTTGGCA | 0.158
TGGCAAAA | 0.209
GGAGGAAA | -0.109
TCTTAACA | 0.14
GCTGGGTA | -0.222
ACATCCGT | 0.0086

Sample 2
Molecule: B1 (IAA18)
Method: two-hybrid
Reading: higher = firmer interaction
B1: IAA18 (Arabidopsis thaliana, UniProt O24408); chain MEGYSRNGEISPKLLDLMIPQERRNWFHDEKNSVFKTEEKKLELKLGPPGEEDDDESMIRHMKKEPKDKSILSLAGKYFSPSSTKTTSHKRTAPGPVVGWPPVRSFRKNLASGSSSKLGNDSTTSNGVTLKNQKCDAAAKTTEPKRQGGMFVKINMYGVPIGRKVDLSAHNSYEQLSFTVDKLFRGLLAAQRDFPSSIEDEKPITGLLDGNGEYTLTYEDNEGDKMLVGDVPWQMFVSSVKRLRVIKTSEISSALTYGNGKQEKMRR
partner | setting | baseline | positive tests
ARF9 519-638 (Arabidopsis thaliana, UniProt Q9XED8) | weak activation fusion | out of 2 tests | 2
IAA28 (Arabidopsis thaliana, UniProt Q9XFM0) | – | out of 4 tests | 3
IAA26 (Arabidopsis thaliana, UniProt Q8LAL2) | – | out of 4 tests | 1

Sample 3
Target: CCNE1, cyclin fold, Cln2 fusion (human)
Method: yeast growth competition, sequencing
Matrix: yeast
Setting: weak parent motif
Baseline: not given
Reading: higher = stronger binding
Starting sequence: SAMHD1 docking peptide (human); ASKSRVQLFKDDP
Substitution | normalised enrichment score
ASKSIVQLFKDDP [R5I] | 0.225
ASKSRVQLYKDDP [F9Y] | 0.0535
ASWSRVQLFKDDP [K3W] | 0.117
ASKSRVQRFKDDP [L8R] | -0.26
ASKSRVQLFMDDP [K10M] | 0.347
ASKSRVQLFKDVP [D12V] | 0.294
ASKSRVFLFKDDP [Q7F] | 0.297
ASGSRVQLFKDDP [K3G] | 0.378
AMKSRVQLFKDDP [S2M] | 0.127
ASKKRVQLFKDDP [S4K] | -0.329
ASKSRVNLFKDDP [Q7N] | 0.0984
ASKSRVQLFKDMP [D12M] | 0.283
ASKSRVQLFKDEP [D12E] | 0.446

Sample 4
Target: BATF, bZIP domain (human)
Method: DHFR protein complementation
Matrix: yeast
Setting: single substitutions, most at no-binding floor
Baseline: wild-type JUN-FOS pair
Reading: higher = stronger binding
Starting sequence: JUN, bZIP domain (human); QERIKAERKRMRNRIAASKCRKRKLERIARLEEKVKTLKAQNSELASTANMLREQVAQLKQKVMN; partner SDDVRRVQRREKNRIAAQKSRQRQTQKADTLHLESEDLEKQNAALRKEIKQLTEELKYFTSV
Substitution | binding fitness [natural log]
A57S | -0.0856
K39D | -0.664
L38E | -0.644
V56H | -0.479
R53Y | -0.546
E44G | -0.177
V56K | -1
V56S | -0.851
T48V | -0.0506

Sample 5
Target: ABI1, truncated, D143A, DHFR fusion (Arabidopsis thaliana)
Method: DHFR PCA, deep sequencing
Matrix: yeast
Setting: methotrexate growth selection, single substitutions
With: (+)-ABA 4.8 µM
Baseline: wild-type fitted maximum
Reading: higher = stronger binding
Starting sequence: PYL1, truncated, DHFR fusion (Arabidopsis thaliana); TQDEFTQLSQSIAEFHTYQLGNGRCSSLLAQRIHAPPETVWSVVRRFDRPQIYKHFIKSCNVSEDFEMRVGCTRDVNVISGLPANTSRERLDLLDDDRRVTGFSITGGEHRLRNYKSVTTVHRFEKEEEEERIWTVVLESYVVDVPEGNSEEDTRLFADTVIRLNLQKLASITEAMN; partner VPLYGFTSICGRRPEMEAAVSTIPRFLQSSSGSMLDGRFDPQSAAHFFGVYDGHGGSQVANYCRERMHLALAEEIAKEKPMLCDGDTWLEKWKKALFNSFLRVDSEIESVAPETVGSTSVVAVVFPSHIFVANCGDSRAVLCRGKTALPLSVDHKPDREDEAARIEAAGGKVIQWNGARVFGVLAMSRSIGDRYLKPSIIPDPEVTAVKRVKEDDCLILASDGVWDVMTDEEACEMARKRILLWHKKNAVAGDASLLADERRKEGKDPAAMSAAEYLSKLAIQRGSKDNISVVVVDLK
Substitution | relative binding score [%]
E152Y | 59.5
D48F | -18.2
T173S | 74.6
E64C | 65
L28A | 8.59
H122L | 4.46
A158E | -6.03
I52S | 62.6
V43F | 44.7
R113F | 32.3
R24A | 51.8
I172W | 8.75
Q7V | 70.1
I33D | -10.8
H34W | 47.7
R46E | 35.1
N85I | 66.7
G21N | 65
E147L | 61.1
S26C | 67.6
R49W | -2.64
Q51M | 32.8

Sample 6
Target: UBE2H UBC core domain (UniProt P62256)
UniProt P62256, sequence (whole entry, looked up): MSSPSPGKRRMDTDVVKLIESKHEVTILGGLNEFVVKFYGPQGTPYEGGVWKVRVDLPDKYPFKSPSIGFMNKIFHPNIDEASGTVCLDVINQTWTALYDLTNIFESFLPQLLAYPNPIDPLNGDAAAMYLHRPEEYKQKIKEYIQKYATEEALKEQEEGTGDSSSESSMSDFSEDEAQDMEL
Method: yeast two-hybrid
Matrix: yeast
Setting: mostly zero background
Baseline: not given
Reading: higher = stronger interaction
B2: HLTF RING domain (UniProt Q14527); chain LILSSGSDEECAICLDSLTVPVITHCAHVFCKPCICQVIQNEQPHAKCPLCRNDIHEDNLLE
B3: RNF103 RING domain (UniProt O00237); chain WPADMLHCTECVVCLENFENGCLLMGLPCGHVFHQNCIVMWLAGGRHCCPVCRWPSYKKKQPY
B4: ZMYND11 RING domain (UniProt Q15326); chain DEIDWETENHDWYCFECHLPGEVLICDLCFRVYHSKCLSDEFRLRDSSSPWQCPVCRSIKKKNTNKQEM
B5: RNF186 RING domain (UniProt Q9NXI6); chain HSGSTECDLECLVCREPYSCPRLPKLLACQHAFCAICLKLLLCVQDNTWSITCPLCRKVTAVPGGLI
B6: ZNRF4 RING domain (UniProt Q8WWF5); chain VRTFTWHNDLCAICLDEYEEGDQLKILPCSHTYHCKCIDPWFSQAPRRSCPVCKQSVAATEDSF
Molecule | lacZ reporter activity
FDPPLESKYECPICLMALREAVQTPCGHRFCKACIIKSIRDAGHKCPVDNEILLENQLFP (TRAF6 RING domain (UniProt Q9Y4K3)) | 0
B2 (HLTF RING domain) | 0
B3 (RNF103 RING domain) | 1290
B4 (ZMYND11 RING domain) | 0
B5 (RNF186 RING domain) | 5120
B6 (ZNRF4 RING domain) | 0

For quick reference, copied from above (sample 5):
Substitution | relative binding score [%]
R113F | 32.3
R24A | 51.8
I172W | 8.75
Q7V | 70.1
I33D | -10.8
H34W | 47.7
R46E | 35.1
N85I | 66.7
G21N | 65
E147L | 61.1
S26C | 67.6
